{"data": "Published values pooled from the literature", "note": "A part holds a random share of what one study measured. Substitutions count along the parent as printed.", "chain of UniProt O15294 (whole entry, looked up)": "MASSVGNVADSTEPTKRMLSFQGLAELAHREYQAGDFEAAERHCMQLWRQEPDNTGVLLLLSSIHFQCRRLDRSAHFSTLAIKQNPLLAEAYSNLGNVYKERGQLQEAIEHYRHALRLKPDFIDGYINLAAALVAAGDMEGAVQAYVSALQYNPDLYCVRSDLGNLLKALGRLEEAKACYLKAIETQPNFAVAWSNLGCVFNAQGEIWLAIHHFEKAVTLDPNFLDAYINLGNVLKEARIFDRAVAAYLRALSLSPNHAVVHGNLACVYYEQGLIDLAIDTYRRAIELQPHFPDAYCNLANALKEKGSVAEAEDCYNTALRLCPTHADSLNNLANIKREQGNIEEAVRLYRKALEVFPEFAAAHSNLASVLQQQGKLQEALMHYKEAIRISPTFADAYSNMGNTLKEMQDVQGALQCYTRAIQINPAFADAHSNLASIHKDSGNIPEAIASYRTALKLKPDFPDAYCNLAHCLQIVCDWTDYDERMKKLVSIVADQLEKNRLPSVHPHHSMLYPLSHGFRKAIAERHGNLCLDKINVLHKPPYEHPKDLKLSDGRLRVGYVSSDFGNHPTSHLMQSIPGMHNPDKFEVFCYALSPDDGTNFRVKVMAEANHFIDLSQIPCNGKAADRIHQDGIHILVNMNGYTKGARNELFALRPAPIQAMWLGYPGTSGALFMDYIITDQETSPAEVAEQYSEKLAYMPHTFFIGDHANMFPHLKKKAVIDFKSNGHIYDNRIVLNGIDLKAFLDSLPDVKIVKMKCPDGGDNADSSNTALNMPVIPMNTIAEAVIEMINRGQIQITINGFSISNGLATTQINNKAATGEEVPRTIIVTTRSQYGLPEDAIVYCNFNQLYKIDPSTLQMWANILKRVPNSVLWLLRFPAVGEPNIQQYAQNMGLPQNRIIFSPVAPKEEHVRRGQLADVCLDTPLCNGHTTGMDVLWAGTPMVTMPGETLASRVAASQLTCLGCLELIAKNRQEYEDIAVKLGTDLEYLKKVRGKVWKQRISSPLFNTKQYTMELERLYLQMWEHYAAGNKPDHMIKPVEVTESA"}
{"data": "Block 1", "target": "PABPC1L2, full length, GST fusion (mouse, UniProt A0ABA7IW68)", "method": "RNAcompete", "molecule type": "RNA", "matrix": "in vitro", "concentration": "20 nM", "setting": "7-mer, probes averaged, single round", "relative to": "mean of 7-mers", "reading": "higher = stronger binding", "Residues (chain)": "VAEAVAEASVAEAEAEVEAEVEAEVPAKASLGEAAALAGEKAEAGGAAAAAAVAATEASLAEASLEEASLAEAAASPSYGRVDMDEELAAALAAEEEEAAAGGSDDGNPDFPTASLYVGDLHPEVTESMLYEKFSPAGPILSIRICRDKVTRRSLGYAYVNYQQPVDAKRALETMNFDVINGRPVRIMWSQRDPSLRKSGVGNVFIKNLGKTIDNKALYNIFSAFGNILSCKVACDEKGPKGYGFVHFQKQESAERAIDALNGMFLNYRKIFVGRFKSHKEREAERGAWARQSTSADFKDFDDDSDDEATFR"}
{"Sequence": "GCAUUGG", "7-mer Z-score": 0.0315}
{"Sequence": "CGCGGAA", "7-mer Z-score": -0.0047}
{"Sequence": "GUUCCAA", "7-mer Z-score": -0.117}
{"Sequence": "UAACGAA", "7-mer Z-score": 0.204}
{"Sequence": "AGUAUGU", "7-mer Z-score": -0.0156}
{"Sequence": "UUGUCUA", "7-mer Z-score": -0.329}
{"Sequence": "CCCAAUU", "7-mer Z-score": -0.313}
{"Sequence": "UUGUUUA", "7-mer Z-score": -0.335}
{"data": "Block 2", "target": "Probable WRKY transcription factor 50, DNA-binding domain (WRKY50, Arabidopsis thaliana, UniProt Q8VWQ5, residues 99-173)", "method": "DNA-protein interaction ELISA", "molecule type": "double-stranded DNA, one strand shown", "matrix": "in vitro, bacterial lysate", "concentration": "not given", "setting": "whole dsDNA probe, crude lysate protein", "relative to": "highest signal in screen", "reading": "higher = stronger binding", "Target sequence (chain)": "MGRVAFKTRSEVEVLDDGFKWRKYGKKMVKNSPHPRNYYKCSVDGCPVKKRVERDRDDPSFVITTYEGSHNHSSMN"}
{"Sequence": "AAAAAATGTTGTTGCTGTTGGTCCTAAAAA", "relative absorbance": "28.1 % of maximum"}
{"Sequence": "AAAAAAGTGTTTGTGCTTCTCTCTGTAAAA", "relative absorbance": "21.8 % of maximum"}
{"Sequence": "AAAAAAGGTCTGGACGATCACCGGGAAAAA", "relative absorbance": "39.6 % of maximum"}
{"Sequence": "AAAAAACCAGCCTCAGTCCTGAACAAAAAA", "relative absorbance": "10.5 % of maximum"}
{"Sequence": "AAAAAATTGTGCCTCTGCCCTCGCCTAAAA", "relative absorbance": "22.5 % of maximum"}
{"Sequence": "AAAAAACCTTCCCCCTCTTCTGCCTTAAAA", "relative absorbance": "14.2 % of maximum"}
{"Sequence": "AAAAAATGATGTTGGCGCATTTAAACAAAA", "relative absorbance": "17.8 % of maximum"}
{"Sequence": "AAAAAATGTCTAGACTCGGACATTCGAAAA", "relative absorbance": "14.3 % of maximum"}
{"data": "Block 3", "target": "CCNF, cyclin fold, Cln2 fusion (human)", "method": "yeast growth competition, sequencing", "matrix": "yeast", "setting": "strong parent motif", "relative to": "not given", "reading": "higher = stronger binding", "starting sequence": "viral docking peptide; PGASRRLFGSSAD"}
{"Variant": "F8A", "normalised enrichment score": 0.138}
{"Variant": "S4A", "normalised enrichment score": 5.24}
{"Variant": "S10A", "normalised enrichment score": 2.66}
{"Variant": "D13A", "normalised enrichment score": 3.38}
{"Variant": "F8L", "normalised enrichment score": 0.608}
{"Variant": "R6A", "normalised enrichment score": 1.71}
{"data": "Other studies, line by line"}
{"Molecule": "DQGMTKDTHHIHTHH", "target": "UDP-N-acetylglucosamine--peptide N-acetylglucosaminyltransferase 110 kDa subunit (OGT, Homo sapiens, UniProt O15294)", "assay": "binding, phage display NGS", "test system": "peptide", "conditions": "panning round 2", "scale": "relative to: input library", "quantity": "minimum log2 enrichment ratio", "result": 2.84}
{"note": "A few entries again (block 3):"}
{"Variant": "F8A", "normalised enrichment score": 0.138}
{"Variant": "S4A", "normalised enrichment score": 5.24}
{"Variant": "S10A", "normalised enrichment score": 2.66}
